Measurements collected from several papers.
Every numbered part comes from another study and shows a few of its results, in no order.

Series 1
Target: Sal-like protein 4, full length isoform B (SALL4, Homo sapiens, UniProt Q9UJQ4-2, residues 1-616)
Method: universal PBM
Molecule type: double-stranded DNA, one strand shown
Matrix: in vitro
Tested at: not given
Notes: 8-mer, flanks averaged, mean of replicates
Direction: higher = stronger binding
`CCACAGAG` gave an E-score of -0.101.
With `AGCTGTGA` the E-score was -0.0315.
The E-score of `CTGCCCGC` is reported as -0.293.
For `AGGGATCC`, the E-score was -0.324.
The E-score of `AAAATTCT` is reported as 0.264.
`TAGTTGCA` gave an E-score of -0.0186.
The E-score of `ATCTATCC` is reported as 0.161.
`CCGCGCCC` has an E-score of -0.383.
For `GAAACTAC`, the E-score was 0.114.
With `ATGATCTG` the E-score was 0.145.
With `CATGGATA` the E-score was 0.192.
`GGGATCAC` gave an E-score of -0.246.
The E-score of `ATGGATTG` is reported as 0.146.
`ATGAGTTC` gave an E-score of 0.0909.
`AACGTTCA` gave an E-score of -0.0359.
For `GTGTAGAA`, the E-score was 0.101.

Series 2
Target: Histone acetyltransferase KAT6A, winged helix 2, GST fusion (KAT6A, Homo sapiens, UniProt Q92794, residues 85-181)
Method: protein binding microarray
Molecule type: double-stranded DNA, one strand shown
Matrix: in vitro
Tested at: not given
Notes: 8-mer, flanks averaged, mean of 2 arrays, mostly near background
Reference: not given
Direction: higher = stronger binding
Residues (chain): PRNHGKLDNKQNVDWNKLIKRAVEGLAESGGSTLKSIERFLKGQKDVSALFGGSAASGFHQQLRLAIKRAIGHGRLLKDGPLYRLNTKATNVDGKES
The E-score of `AGAACCCA` is reported as -0.036.
With `GGTAACCA` the E-score was -0.0213.
`ACGAGGCT` gave an E-score of 0.0878.
`CACCGCAG` has an E-score of -0.0563.
For `CAAAACTC`, the E-score was 0.0311.
`ATCCTCAT` gave an E-score of -0.205.
`CTGAACAA` has an E-score of 0.0359.
`AAGCACAG` has an E-score of 0.187.
The E-score of `CTGTGCGA` is reported as 0.0678.
`CACGTAGC` has an E-score of -0.316.
For `GCCTGTCC`, the E-score was -0.0279.
For `GCTGCGGA`, the E-score was 0.16.
`CCGCGGCC` has an E-score of 0.316.
For `CTCATATA`, the E-score was -0.191.
`AACGCAGA` gave an E-score of 0.126.
`ATTATACA` gave an E-score of 0.0242.
`TCAGCCCA` gave an E-score of 0.0235.
With `GACGCGCC` the E-score was 0.078.
With `AATGTTAA` the E-score was -0.157.

Series 3
Target: RING finger protein unkempt homolog, zinc fingers 1-6, GST-SBP tag (UNK, Homo sapiens, UniProt Q9C0B0, residues 30-357)
Sequence of UniProt Q9C0B0 (30-357, looked up): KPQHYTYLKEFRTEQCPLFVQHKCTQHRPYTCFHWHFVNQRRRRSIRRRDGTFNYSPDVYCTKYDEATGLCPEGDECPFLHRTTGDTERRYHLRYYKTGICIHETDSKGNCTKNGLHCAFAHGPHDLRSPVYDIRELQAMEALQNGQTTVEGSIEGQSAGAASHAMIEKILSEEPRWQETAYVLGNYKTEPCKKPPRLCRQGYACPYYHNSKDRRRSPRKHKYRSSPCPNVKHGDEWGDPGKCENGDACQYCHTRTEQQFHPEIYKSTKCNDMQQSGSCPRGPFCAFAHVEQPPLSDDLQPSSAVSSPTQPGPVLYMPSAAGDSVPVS
Method: RNA Bind-n-Seq
Molecule type: RNA
Matrix: in vitro
Tested at: not given
Notes: RNA with constant flanks, human and mouse sites, ends assumed
Reference: input RNA pool
Direction: higher = stronger binding
Constant ends, left off below: GGGAGUUCUACAGUCCGACGAUC … CAACAGAGGAUUGAGCAUCA
`CAAAAUCCAGAACUUUAUAUACGGGAGAGUGUAAAAGGAUCGUUGGACAGGAAGAAGUUAGAGCAACUGUACACUAGAUACAAAGACCCUCAGGAUGAAAAUAAAAUUGGAAUAGAUGGU` has a bound/input enrichment of 3.23 ratio.
The bound/input enrichment of `GCAUGUUCUUAUGGACAUUAUGAAGUUGCAGAACUUCUUGUUAAACAUGGAGCAGUAGUUAAUGUAGCUGAUUUAUGGAAAUUUACACCUUUACAUGAAGCAGCAGCAAAAGGAAAAUAU` is reported as 0.667 ratio.
For `GCCCGCGGCCACUUUUGCCUUCCCGGGGAGAUGUCCUUUGCUUCUCAGAUGUAAAUGCACUUUAAGUUUGUUAUUCAACAGUGAAAAUGAGUCAUACAGAGGUUAAAUUAAAAAUACCUU`, the bound/input enrichment was 0.101 ratio.
The bound/input enrichment of `CACCACACUUUAAAGGCAGAUGCUCUAUUAGGAAAAGCAACAGUGGACUUGAAACAAGUGCUGUUAACACACAACAGAAAAUUAGAAAAAGUGAAAGAACAAUUAAAACUUUCCUUGGAA` is reported as 1.94 ratio.
`GCGAAACAGGAAAUCCUGGAAAACAAAGAUGUGGUGGUUCAGCAUGUUCAUUUUGAUGGACUUGGGCGGACUAAGGAUGACAUCAUCAUUUGUGAAAUCGGAGAGGUCUUUAAGGCUAAA` gave a bound/input enrichment of 0.189 ratio.
For `GGGAAAAACAGCCUCUCCGUACUUUCACCAAAAAUUGGAAAUCUACUAUUUCUUUCCUACUUAGACAUCAAAGGCAAUCACUUUGAAGUCCUCCCUCCCGAGCUGGGAGACUGCCGGGCU`, the bound/input enrichment was 0.397 ratio.
For `UUCCACUUUUUUUUCCUUCAUGGAGACUGUUUGUUUGGCUUUCUUCCAUUGUUGUUUUUGUAGCAUUUAUUUCAGAAAUGUGUAUUUCCAUAAUCCAGAGGUUGUAAAACCACUAGUGUU`, the bound/input enrichment was 1.28 ratio.
With `GACAAGGAAAAUUUGUACAGAGCUCUCCUGCUUACAACCUCAAAUAAAGAAGAUACAUUAUUUUUAAAGGAGCAACUUCGCAAAGCGGAGGAACAAGUCCAGGCAACACGGCAAGAACUU` the bound/input enrichment was 0.259 ratio.

Series 4
Target: RNA binding protein fox-1 homolog 2, RRM domain, GST-SBP tag (RBFOX2, Homo sapiens, UniProt O43251-10, residues 100-194)
Method: RNA Bind-n-Seq
Molecule type: RNA
Matrix: in vitro
Tested at: 365 nM
Notes: natural RNA segment, single round, ends assumed
Reference: no-protein control
Direction: higher = stronger binding
Constant ends, left off below: GGGAGUUCUACAGUCCGACGAUC … UGGAAUUCUCGGGUGCCAA
Residues (chain): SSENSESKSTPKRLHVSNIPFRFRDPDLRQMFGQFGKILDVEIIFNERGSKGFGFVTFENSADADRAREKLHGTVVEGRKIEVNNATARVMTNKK
`AAGGAUCAUCCUACUGCUAAGUCCGUGUCUCUUCUUGCUUCUAGUGUUUUGGCCACGCCUCACCAAAUGUCUGUAAUGACCCAGUACUCACAACAUGUUCAGGAGGAGCU` — result for “RBNS enrichment (R)”: 0.268.
`GGGGAAAAAUGAAAUUAUAAUGCAUUUGUAUUUCCAUUUCUUGCAAAUAAAUAUUUUUCUUAGUCAAUGUUGCCUGGUCUUUAAAUCCUGACAACCUGGUUUCAAAGGCA` — result for “RBNS enrichment (R)”: 0.427.
Under “RBNS enrichment (R)”, `UGUUCUCUUACACAUACGUAUGUUAGGAAAAUAGACACAUUUUCAAAGAGAAUGUUCUCUUACAUAUGUUAGGAAAAUAGGCACACUUUCAAAGAGAGGUAUAGGGGCUU` is recorded as 0.399.
`UGAGUAGGUAUCUCAGCAGCACACCCGAACAGUAAAGGUGAUCAAUAACGAAACUGUAGUUUUCAGAUUGAAGAAUGAACCUGGAUCACCAAACUAGAUACCGAAAGGGC` — result for “RBNS enrichment (R)”: 1.24.
Under “RBNS enrichment (R)”, `CCAGUGAAGACUUCUUGGGUAGUUUAGAUCCCAUGUCACCUCAGCUGAUAUUAUGGCAAGUGAUAUCACCUCUCUUCAGCCCCUAGUGCUAUUCUGUGUUGAACACAAUU` is recorded as 0.359.
Under “RBNS enrichment (R)”, `UAUUUAUCAAAACUGACUACUGGACCGGAGCCCAGAAACCAUGGGUCAAGUUACACGUGAAUUUGUUUUGUGAAGAAGGGAAGCUGGGGCAGGUAACACGCAGAGCCGCC` is recorded as 0.417.
Under “RBNS enrichment (R)”, `CACCACAACCACCUGUCCACCCCUUCCUUCCCCACCACUGUCGCUCACCCUGACAUAUGCCCACAUCCAUGCUGGGGCCUGGGUUCAGCCUGGCCUGCCCAGCCCUGGUC` is recorded as 0.961.
For `AGGUGUAAAUAAAUUCAUAAUUCAAACAGCCAGUAUAUAUGCAUAUAUGGGUGUUACAUUGCAAAAAUCUCUAUCUUUGUUCUAUUCACAUGCUUAAAGAAGUAAGAAAU`, “RBNS enrichment (R)” read 0.883.

Some of these lines once more (series 2):
With `GGTAACCA` the E-score was -0.0213.
`ATCCTCAT` gave an E-score of -0.205.
With `GACGCGCC` the E-score was 0.078.
`AACGCAGA` gave an E-score of 0.126.
`ATTATACA` gave an E-score of 0.0242.
`CACGTAGC` has an E-score of -0.316.
The E-score of `CTGTGCGA` is reported as 0.0678.
